# Results pooled from the literature.
# Each line is one published result; not all experiments were run side by side. Values joined by “and” are separate records of one study, mostly repeats; a detail may differ.
# Cell line: COLO 205
SMILES,assay,system,setting,how to read,measurement,value
Cn1cncc1C1=CN(c2ncnc3[nH]cnc23)CCS1,,,colon cancer,,GI50,16200 nM
C#C[C@@]1(O)[C@@H](CO)O[C@@H](n2cc(Cl)c3c(N)ncnc32)[C@@H]1O,SRB,,NCI-60 screen,,TGI,521 nM and 276 nM
C[C@]12CCCN1CC1=NNC(=O)c3cc(F)cc4[nH]c2c1c34,,,added: temozolomide,,EC50,> 3000 nM
C#C[C@@]1(O)[C@@H](CO)O[C@@H](n2ccc3c(N)ncnc32)[C@@H]1O,SRB,,NCI-60 screen,,TGI,2670 nM
O=C1NCCc2[nH]c(-c3ccncc3)cc21,MTS,colon cancer,,,IC50,> 10000 nM
CCn1cc(-c2cc(Cn3ccnc3)cc3c2CCN([C@H](c2cc(OC)ccn2)C2CC2)C3=O)c(C(F)(F)F)n1,"cell growth, inhibitor",,120 h,,EC50,239 nM
CC(=O)Nc1cccc(-n2c(=O)n(C3CC3)c(=O)c3c(Nc4ccc(I)cc4F)n(C)c(=O)c(C)c32)c1,"cell viability, resazurin",,"50.00 nM, 72 h",relative to: DMSO,fractional effect,0.913 and 0.94
O=C(Nc1nnc2[nH]c(=S)[nH]c(-c3ccc(Cl)cc3)c1-2)c1ccccc1,SRB,,"10 µM, NCI60 single-dose screen, colon cancer",relative to: untreated,cell growth,122%
Cn1cc(-c2ccc(-c3cncc(Cl)c3N3CCC4(CCNC4=O)CC3)cc2)cn1,"gene expression, microarray, measured: IFIT3 mRNA",,"concentration not given, 6 h",relative to: untreated cells,log2 fold change,2.21
S=C([S][Au-][P+](CCCCCC[P+]([Au-][S]C(=S)n1cccn1)(c1ccccc1)c1ccccc1)(c1ccccc1)c1ccccc1)n1cccn1,cell growth,,,,GI50,308 nM
Cc1cc(=O)[nH]n1-c1nc(-c2ccc(Cl)cc2)c2c(NC(=O)c3ccccc3)nnc-2[nH]1,SRB,,"10 µM, NCI60 single-dose screen, colon cancer",relative to: untreated,cell growth,120%

# Repeated from above:
SMILES,assay,system,setting,how to read,measurement,value
CC(=O)Nc1cccc(-n2c(=O)n(C3CC3)c(=O)c3c(Nc4ccc(I)cc4F)n(C)c(=O)c(C)c32)c1,"cell viability, resazurin",,"50.00 nM, 72 h",relative to: DMSO,fractional effect,0.913 and 0.94
